Measurements pooled from the literature.
A part holds a random share of what one study measured.

Study 1
Target: RNA binding protein fox-1 homolog 2, RRM domain, GST-SBP tag (RBFOX2, Homo sapiens, UniProt O43251-10, residues 100-194)
Method: RNA Bind-n-Seq
Form: RNA
Matrix: in vitro
Concentration: 365 nM
Notes: natural RNA segment, single round, ends assumed
Baseline: no-protein control
Reading: higher = stronger binding
Endpoint: RBNS enrichment (R)
Shared flanks, not repeated: GGGAGUUCUACAGUCCGACGAUC … UGGAAUUCUCGGGUGCCAA
Target sequence (chain): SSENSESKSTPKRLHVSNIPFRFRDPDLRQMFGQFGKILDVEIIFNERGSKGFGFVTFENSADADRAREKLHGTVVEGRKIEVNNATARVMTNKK
AGAACUGGGGGGCUGCGCCCGCUCCCUCCUUAAUCCUAGAUGAUUUGCUCAUGAAAUAGAGGUGGGGGACGACCGCAUGCACUCUGGGAGGUGCAGCCCUAAGGGGUGGA: 1.95
AAGAGGCUGUGCAGCUGGAAAGGAGAGCCCCAAGCCUGAGGCGCUCAGGCCCGCCUCCAACCCCGAGACCUCAGCUGUGCCUUAUCACAGAGAUGGCGCUGCAGGGCCCA: 0.246
AAAAAAUUACCCAGAUUGGCUCCAUGGAAAAGGAGGAACAGCGUUUCCGUAAAAUUGACUUUGUACUCUGAAAACGUCAAUUUAUAUUGAACUUGGAGGAGUUUGGCAAA: 0.318
AAUCCCAGCUACUCAGGAAGCUGAGGCAGGAAAAUCGCUUGAACCUGGGAGGUGGAAGUUGCAGUGAGCCGAGAUCGCACCACUGCACUCCAGCCUGGGUGACAAGAGCG: 0.253
UCCCUGAGCAUCUGGAGACACCUGGAGCAUGAAACCUUCUGUAAUCGCUGAGAUCUGUAACUUACAGGACACUCAAAGGGCAAUGGUUUUUUUUGGGGGGGGGGUUGUUU: 1.72
GGAUCUCCCCAAGUAUGUCCUACUCUGUGCACCCUGUGCUGGAGCCCUACUUUUCACCCCGCUGCCCCUCGGGAGGACUGCAGCUCGCUCCUGUUGGGAUCGCAAAGCUC: 0.65
GAACACCUACUGUGUGCCAGGCACUUUACAUCCCCCCCUCAGUGUCUACCUAGUCUGCUGGGCUGAUAGUGAAGCACCGAGGUUGAUGGACUUACAUUCCCAGUGUGCCU: 0.483
GGACAUGGCAAAGAGAAUACAGCGAAGCCCCUUCUCUUCCUACCAAACAACUCUGUAGAGCUCUCUGCACCCUGUACCCUUUUCACCUUUUGUAUUUAAUUUUAAAGUCA: 0.488

Study 2
Target: Histone acetyltransferase KAT6A, winged helix 1, GST fusion (KAT6A, Homo sapiens, UniProt Q92794, residues 1-85)
Method: protein binding microarray
Form: double-stranded DNA, one strand shown
Matrix: in vitro
Concentration: not given
Notes: 8-mer, flanks averaged, mean of 2 arrays, mostly near background
Baseline: not given
Reading: higher = stronger binding
Endpoint: E-score
Residues (chain): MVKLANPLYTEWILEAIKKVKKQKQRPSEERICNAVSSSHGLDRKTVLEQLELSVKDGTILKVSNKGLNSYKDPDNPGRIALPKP
CTTCCCCC: 0.0175
TGGCTCAA: -0.126
GAGGTGGA: -0.208
GATCACAC: -0.196
CTTTAACC: -0.0612
ATTCGTAC: -0.0833
AGACCACG: -0.147
GTTCGAAC: -0.215
ACAGTGTA: -0.139
CTACGGTA: 0.182
CCGTTTCG: 0.189
CATGCCGG: 0.345
GAGCCTTA: -0.106
AAGTTATA: -0.0992
ACTACGTA: 0.00822
CAAGTACA: -0.136
ACCTCCGA: -0.0489
AGAGTAGC: -0.124
CTCGCTTC: -0.015
GGATAGCA: -0.0036
CCGAAAGC: 0.148
CCTTTCAG: 0.0178
CCACAGGA: -0.205
GTATCCCA: -0.105

Study 3
Target: Centromere-binding protein 1, full length, N-terminal tag (CBF1, Saccharomyces cerevisiae, UniProt P17106, residues 1-351)
UniProt P17106, sequence (whole entry, looked up): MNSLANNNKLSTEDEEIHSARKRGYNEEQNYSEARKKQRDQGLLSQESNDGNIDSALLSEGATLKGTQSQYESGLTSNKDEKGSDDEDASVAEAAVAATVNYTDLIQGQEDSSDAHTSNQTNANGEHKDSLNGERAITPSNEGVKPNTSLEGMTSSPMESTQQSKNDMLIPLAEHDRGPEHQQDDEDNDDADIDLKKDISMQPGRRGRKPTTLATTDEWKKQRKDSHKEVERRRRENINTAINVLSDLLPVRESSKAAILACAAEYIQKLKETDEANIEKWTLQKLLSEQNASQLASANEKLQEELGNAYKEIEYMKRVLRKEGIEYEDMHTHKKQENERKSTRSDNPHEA
Method: protein-binding microarray
Form: double-stranded DNA, one strand shown
Matrix: in vitro
Concentration: 0.8 µM
Notes: whole 60-bp probe, no competitor
Reading: higher = stronger binding
Endpoint: fluorescence intensity
Shared flanks, not repeated: … GTCTTGATTCGCTTGACGCTGCTG
CCTAACTACTATAGTCACCAGTCATAGCTTCGTACA: 567 a.u.
CCTAACTACTATATGTGCATGAAATAGCTTCGTACA: 530 a.u.
CTAATTCGTTTACGGCGCACGACAGACACTTCATTC: 515 a.u.
CTAGCACTATTTTTTCATGTGCTGAACTTCAGGTTC: 680 a.u.
CCTAACTACTATAAACATGTGCTATAGCTTCGTACA: 753 a.u.
CTAGTCTTATTCCCTCACCCCGCGTCCTTCTTCTTC: 497 a.u.
CTAGTCGCTGATAAAATCGTGATTCTCGATCAATTC: 535 a.u.
GAAATGCAATTCAGTCACGTTCCACACAGTTTGTAG: 2400 a.u.
CTAGCGAAGCTTCCTCACATGGAAAAGGCTTCTTTC: 499 a.u.
TGTACGAAGCTATACGGTGTGATTATAGTAGTTAGG: 528 a.u.
GAAAAGTCCTTTAATCTCAGCTGATATCGTCCTTAG: 586 a.u.
GAAATTAGCGGGGATCAGGTGCCGGTAGTATATTAG: 992 a.u.
CTAAGGCCCTTAGATCTCACATGATGCTTGACTTTC: 981 a.u.
GAATGAACAGGATTTTTCCACGTGGATTGGGCATAG: 2470 a.u.
GAATCTGGCAGGCACCACATGGGTAGAGAATAATAG: 624 a.u.
CTAGACCATACTATCCAGGTGAGTTTGTCATGGTTC: 525 a.u.
CTATTCGTTATTTATGGCATCACGATTATTCTCTTC: 653 a.u.
CTAACCTGGGTTTCCTGCACCACCAGCCCCCATTTC: 457 a.u.
TGTACGAAGCTATTTAATGATCATATAGTAGTTAGG: 579 a.u.

Study 4
Target: Interferon regulatory factor 5, full length, phosphomimetic (IRF5, Homo sapiens, UniProt Q13568-2, residues 1-514, S451D/S453D/S456D/S462D)
Method: protein-binding microarray
Form: double-stranded DNA, one strand shown
Matrix: in vitro
Concentration: 940 nM top
Notes: 60-bp whole probe
Together with: salmon DNA 0.4 mg/ml
Baseline: random background probes
Reading: higher = stronger binding
Endpoint: fitted relative affinity
Shared flanks, not repeated: GCCTAGCAC … GTCTTGATTCGCTTGACGCTGCTG
GACGAACTGGGGACTGGAGATGTGCTA: -0.0977 z-score
TTCCCAATGGTCTTTCCACTTGTGCTA: 0.753 z-score
TCAATATTCTGCTTTGCACTGTGCTAG: 0.0969 z-score
GTGTATATATAATATATATTCGTGCTA: 0.0621 z-score
GACGGTTTCCTTGCCCTGACGTGCTAG: 1.06 z-score
GGCAGGCTTGCCAGTTCCCCGTGCTAG: -0.477 z-score
GACAGTCTCGGTCTCGGGACGTGCTAG: 5.87 z-score
TTAGGTTTCGACTATCGGTTGGTGCTA: 9.5 z-score
TCAAGTATGTTCCTTATTACTGTGCTA: 0.651 z-score
TTTTTTTCATATATATATGAGTGCTAG: 0.569 z-score
GACGATTTGAGTTTCGAGACGTGCTAG: 3.79 z-score
AGAATGATCTTCCTTCATGGCGTGCTA: 0.681 z-score
TGAGATATCGGGTTTCGATTAGTGCTA: 4.89 z-score
TTAGGTTTCCTACTCCTTTAGTGCTAG: 1.13 z-score
TTACGTATCCTACTGCTTTAGTGCTAG: 0.391 z-score
GACGGTTTCCTTATCCTCACGTGCTAG: 1.86 z-score

Repeated from above (study 3):
GAATGAACAGGATTTTTCCACGTGGATTGGGCATAG: 2470 a.u.
GAATCTGGCAGGCACCACATGGGTAGAGAATAATAG: 624 a.u.
CTAGACCATACTATCCAGGTGAGTTTGTCATGGTTC: 525 a.u.
